Assay results of several laboratories.
Protocols differ between the studies behind these lines. ± marks the error that the study gave.
SCTR: Secretin receptor (SCTR, Homo sapiens, UniProt P47872)
POLB: DNA polymerase beta (POLB, Homo sapiens, UniProt P06746)
POLB I260M: DNA polymerase beta (POLB, Homo sapiens, UniProt P06746, I260M)

Cn1cncn1.[Ru+2].c1cc(-c2ccc3ccccc3n2)nc(-c2ccc3ccccc3n2)c1.c1ccc2cc3nc4c5cccnc5c5ncccc5c4nc3cc2c1  kinact/KI (Procathepsin L (CTSL, Homo sapiens, UniProt P07711); irreversible inhibitor; pH 5.5, dark, with: Z-Phe-Arg-AMC): < 10 M⁻¹ s⁻¹
COc1ccc(-c2cc(C(F)(F)F)nc(S(=O)(=O)CCCC(=O)Nc3ccc(F)cc3F)n2)cc1OC  Emax (SCTR; increase of tracer binding, TR-FRET; HEK293 membranes; with: Fluo-Sec 6 nM): 137 ± 11%
Nc1nc2c(ncn2C2CC(O)C(COP(=O)(O)OP(=O)(O)C(Cl)P(=O)(O)O)O2)c(=O)[nH]1 (mixture of isomers)  kpol (POLB; nucleotide incorporation rate, substrate, single-turnover kinetics; single-nucleotide gapped DNA; 37 °C, wild type, misincorporation, with: dGTP opposite template A): 0.007 ± 0.002 s⁻¹
DREIEILTKEINKLELKISD  Kd ratio (Exportin-1 (XPO1, Homo sapiens, UniProt O14980, E571K); fluorescence polarization; peptide; reference: E571K mutant over wild type): 1.1
CNS(=O)(=O)Nc1cccc(-n2c(=O)n(C3CC3)c(=O)c3c(Nc4ccc(I)cc4F)n(C)c(=O)c(C)c32)c1  outcome (MAP2K2 (Homo sapiens, UniProt P36507); substrate phosphorylation, inhibitor; 1 µM): inhibited
[11CH3]c1ccc2nc(C3CCC3)n(-c3ccc4[nH]ncc4c3)c2n1  uptake reduction (AUC) (Voltage-dependent calcium channel gamma-8 subunit (Rattus norvegicus, UniProt Q8VHW5); PET; Sprague-Dawley rat, hippocampus; dose not given, with: blocker pretreatment 1 mg/kg; reference: baseline): 43 to 53%
NC(=O)CCC(=O)N1CCOC(CC(c2ccccc2)c2ccccc2)C1 (centres unmarked)  Ca2+ dissociation rate (Troponin C, slow skeletal and cardiac muscles, with cTnI (TNNC1, Human, UniProt P63316, C35S/C84S/T53C); stopped-flow fluorescence; 50 µM, IAANS-labelled chimera): 57.6 ± 0.9 s⁻¹
CN1CCN(CC(=O)N2N=C3/C(=C/c4ccccc4)CCCC3C2c2ccccc2)CC1 (mixture of isomers)  enzyme activity (ALOX15B (Homo sapiens, UniProt O15296); activator; 20 µM, with: arachidonic acid; reference: activator 0 µM): 94.9%
Nc1ncnc2c1ncn2[C@@H]1O[C@H](CSCC[C@H](N)C(=O)O)[C@@H](O)[C@H]1O  Km (5-methylthioadenosine/S-adenosylhomocysteine deaminase (mtaD, Thermotoga maritima, UniProt Q9X034); deaminase activity, substrate): 106 ± 18 µM
CCCCCCCC/C=C\CCCCCCCC(=O)O[C@H]1C=CCO[C@H]1COP(=O)(O)S (some centres unmarked)  Emax (LPAR2 (Homo sapiens, UniProt Q9HBW0); agonist, TGFα shedding): 26%
CC(C)CCC[C@@H](C)[C@H]1CC[C@H]2[C@@H]3CC=C4C[C@@H](OS(=O)(=O)O)CC[C@]4(C)[C@H]3CC[C@]12C  maximal inhibition (Prothrombin (F2, Homo sapiens, UniProt P00734); enzyme activity, inhibitor, chromogenic substrate; 10 min, pH 7.4, 25 °C, 0.02% Tween 80, with: Spectrozyme TH): 71.3 ± 4.2%
COc1cccc(-c2cc(C(F)(F)F)nc(NCc3ccc(F)cc3)n2)c1  Emax (SCTR; cAMP accumulation, positive allosteric modulator; CHO-K1 overexpressing SCTR; with: EC10-EC20 secretin peptide mix; reference: EC95 peptide mix): 70 ± 4%
COc1ccc(-c2cc(C(F)(F)F)nc(S(=O)(=O)CCC(=O)Nc3ccc(C)cc3)n2)cc1  kinact/KI (WRN (Homo sapiens, UniProt Q14191); enzyme activity, inhibitor): 180 M⁻¹ s⁻¹
Nc1nc2c(ncn2[C@H]2C[C@H](O)[C@@H](COP(=O)(O)OP(=O)(O)CP(=O)(O)O)O2)c(=O)[nH]1  kpol (POLB I260M; nucleotide incorporation rate, substrate, single-turnover kinetics; single-nucleotide gapped DNA; 37 °C, I260M, misincorporation, with: dGTP opposite template A): 0.0016 ± 0.0002 s⁻¹
NC(=O)C1CCNC(=O)C(CCCNC(=O)c2cnccn2)NC(=O)C(Cc2ccco2)NC(=O)C(CC=Cc2ccccc2)NC(=O)C=CC(=O)N1 (centres unmarked)  enrichment factor (KDR (Homo sapiens, UniProt P35968); DNA-templated library selection; one selection round): 0.95
O=C(/C=C/c1ccccc1)Oc1ccc2c(c1)O/C(=C\C=C\c1ccccc1)C2=O  thermal shift (PIK3C3 (Homo sapiens, UniProt Q8NEB9); CETSA; HeLa cell lysate; 10 µM): ~5 °C
C=CC(=O)N1CCCC(n2c(=O)c3ncccc3n(Cc3ccc(Oc4ccccc4)cc3)c2=O)C1 (centres unmarked)  actin assembly rate increase (WAS (Homo sapiens, UniProt P42768); pyrene actin; concentration not given; reference: actin alone): 50 to 60%
Nc1nc2c(ncn2C2CC(O)C(COP(=O)(O)OP(=O)(O)C(Br)P(=O)(O)O)O2)c(=O)[nH]1 (mixture of isomers)  kpol (POLB I260M; nucleotide incorporation rate, substrate, single-turnover kinetics; single-nucleotide gapped DNA; 37 °C, I260M, misincorporation, with: dGTP opposite template A): 0.004 ± 0.0007 s⁻¹
CC(C)C1CC(=O)N1S(=O)(=O)c1cccc(Cl)c1 (centres unmarked)  remaining activity (Rhomboid protease AarA (Providencia stuartii, UniProt P46116); enzyme activity, inhibitor; 100 µM): 71 to 86%
CCCCCCCCc1ccc(Oc2ccccc2)c(O)c1  residence time (Enoyl-[acyl-carrier-protein] reductase [NADPH] FabI (Staphylococcus aureus, UniProt Q6GI75); enzyme activity, inhibitor, progress curve kinetics): 29.6 min
C[n+]1cn(C2OC(COP(=O)(O)OP(=O)([O-])OP(=O)(O)OCC3OC(n4cnc5c(=O)[nH]c(N)nc54)C(O)C3O)C(O)C2O)c2nc(NCc3ccccc3)[nH]c(=O)c21 (centres unmarked)  relative affinity (Eif4e (Mus musculus, UniProt P63073); differential scanning fluorimetry; reference: m7GpppG): ~2.5
Nc1nc2c(ncn2[C@H]2C[C@H](O)[C@@H](COP(=O)(O)OP(=O)(O)[C@H](Cl)P(=O)(O)O)O2)c(=O)[nH]1  kpol (POLB; substrate, quench-flow kinetics; pH 8.0, 37 °C, incorporation opposite C in gapped DNA): 7.6 s⁻¹
CC[C@H](C)[C@H](NC(=O)[C@@H](NC(=O)[C@H](CCCCN)NC(=O)[C@@H](NC(=O)[C@@H]1CCCN1[C@@H]1CN(C(=O)[C@@H](NC(=O)[C@@H](NC(=O)[C@@H](NC(=O)[C@@H](NC(=O)[C@@H](NC(=O)[C@@H](N)CCCCN)C(C)C)C(C)C)C(C)C)[C@@H](C)CC)[C@@H](C)O)CC[C@H]1NS(=O)(=O)c1ccc(C)cc1)[C@@H](C)O)C(C)C)C(=O)N[C@@H](CC(C)C)C(=O)N[C@@H](Cc1c[nH]cn1)C(N)=O  width of rod-like aggregates (MAPT (Homo sapiens, UniProt P10636); electron microscopy, refers to: wild-type tau; 96 h, 37 °C, compound to tau ratio 5/1 with tau 10 µM): 15.7 ± 0.2 nm
CC[C@H](C)[C@H](NC(=O)[C@H](Cc1ccc(O)cc1)NC(=O)[C@@H](NC(=O)[C@H](CCCNC(=N)N)NC(=O)[C@@H](N)CC(=O)O)C(C)C)C(=O)N[C@@H](Cc1c[nH]cn1)C(=O)N1CCC[C@H]1C(=O)O  Vmax (angiotensin peptidase, sheep CSF; substrate; CSF of BMX sheep; with: inhibitor cocktail): 223 nmol/min/mg protein
Cc1ccccc1NC(=O)CSc1nc(-c2ccc(Cl)cc2)cc(C(F)(F)F)n1  Emax (SCTR; increase of tracer binding, TR-FRET; HEK293 membranes; with: Fluo-Sec 6 nM): 121 ± 9.2%
CC(C)C[C@@H]1NC(=O)[C@H]([C@@H](C)O)NC(=O)[C@H](Cc2ccccc2)NC(=O)CNC(=O)[C@H](Cc2c[nH]c3ccccc23)NC(=O)[C@H](Cc2c[nH]cn2)NC(=O)[C@H](C)NC(=O)[C@@H](N)CCCCNC(=O)C[C@@H](C(N)=O)NC1=O  gelatinase inhibition increase (MMP2 (Homo sapiens, UniProt P08253); concentration not given; reference: compound over C1): 4 fold
O=C(CCCCCCS)Nc1ccccc1  ΔCp (HDAC8 (Homo sapiens, UniProt Q9BY41); temperature-dependent ITC; Tris-HCl buffer; range from 5 °C): -0.27 ± 0.01 kcal mol^–1 K^–1
O=c1cc(CCl)[nH]c2c(-c3cccc4ccccc34)c(C(F)(F)F)nn12  current fold increase (KCNQ2 (Homo sapiens, UniProt O43526); potassium current, activator, whole-cell patch clamp; CHO, stable; 20 µM; reference: current before compound): 1.21 ± 0.1
Cc1cn([C@H]2C[C@H](O)[C@@H](COP(=O)(O)OP(=O)(O)C(F)(F)P(=O)(O)O)O2)c(=O)[nH]c1=O  kpol/Kd (POLB; substrate, single turnover kinetics): 430000 ± 120000 M⁻¹ s⁻¹
S=C(Nc1ccc(Cl)cc1)Nc1cccc2[nH]ccc12  inhibition (Microtubule-associated protein tau, 0N3R isoform (MAPT, Homo sapiens, UniProt P10636); fibril formation, ThT fluorescence; 100 µM, 18 h, with: tau 10 µM): 66%
CC(P(=O)(O)O)P(=O)(O)OP(=O)(O)OCC1OC(n2cnc3c(=O)[nH]c(N)nc32)CC1O (mixture of isomers)  kpol (POLB; nucleotide incorporation rate, substrate, single-turnover kinetics; single-nucleotide gapped DNA; 37 °C, wild type, misincorporation, with: dGTP opposite template A): 0.0003 ± 4e-05 s⁻¹
COc1ccc(CCNc2ncnc3sc(C)cc23)cc1OC  protein level (NR2F2 (Homo sapiens, UniProt P24468); western blot; LNCaP; concentration not given, 18 h): no effect

Some of these lines once more:
CCCCCCCC/C=C\CCCCCCCC(=O)O[C@H]1C=CCO[C@H]1COP(=O)(O)S (some centres unmarked)  Emax (LPAR2 (Homo sapiens, UniProt Q9HBW0); agonist, TGFα shedding): 26%
Nc1nc2c(ncn2C2CC(O)C(COP(=O)(O)OP(=O)(O)C(Br)P(=O)(O)O)O2)c(=O)[nH]1 (mixture of isomers)  kpol (POLB I260M; nucleotide incorporation rate, substrate, single-turnover kinetics; single-nucleotide gapped DNA; 37 °C, I260M, misincorporation, with: dGTP opposite template A): 0.004 ± 0.0007 s⁻¹
CN1CCN(CC(=O)N2N=C3/C(=C/c4ccccc4)CCCC3C2c2ccccc2)CC1 (mixture of isomers)  enzyme activity (ALOX15B (Homo sapiens, UniProt O15296); activator; 20 µM, with: arachidonic acid; reference: activator 0 µM): 94.9%
